Results collected from several papers.
Each numbered part is a random draw from the data of one study; scales do not carry over between parts.

Study 1
Target: RNA binding protein fox-1 homolog 2, RRM domain, GST-SBP tag (RBFOX2, Homo sapiens, UniProt O43251-10, residues 100-194)
Method: RNA Bind-n-Seq
Form: RNA
Medium: in vitro
Concentration: 365 nM
Setting: natural RNA segment, single round, ends assumed
Reference: no-protein control
Reading: higher = stronger binding
Quantity: RBNS enrichment (R)
Constant ends, left off below: GGGAGUUCUACAGUCCGACGAUC … UGGAAUUCUCGGGUGCCAA
Residues (chain): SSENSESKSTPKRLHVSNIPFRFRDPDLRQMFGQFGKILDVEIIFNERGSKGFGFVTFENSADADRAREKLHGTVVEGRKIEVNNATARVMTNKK
GGUGGCCUUAACUACAGUGGAGGUGGAACUUCCCAGGAGGGGAAGGGACAGACCAGCCCCAGCCGCUGGGCCAACUUCCAAUCAUUCCAGCUAGAAGAGCUUCCCCCUGA: 0.467
AUGAUGUUACCAGAAACAGGCAUUCAGGAACUCUACUGUCUAGAUACUACAUUCAGCUUACCAUAAAUAUUUGUCCUUGAAGGGUUUGAUUUAAUAUUUUCACAGACUAG: 0.679
CUGGGAGUGGUUAUGUUGUAUCCCCAUCUUGGCUGGCUUCAGUUUUUGCUGUAGCCCUAGAGCACUUUGUUUGUGGGAGGCUGGCCUCUUGCCUACCUCCUUGCAUGGAC: 1.73
CUGUGUUUUCAAGGUAAAUGGUCACUCUACAUUUAUAAACACAGGUCUGAUUGUACUUGAGGUAUAAGAAAAUCUAUGAGGAAACAAGAUUUCCCUAUAACCCUAUAAUU: 0.39
GCCUCGGGAAAGUCUGGUCCCACAUCUGCCCGCCCUUCCAGCCCUUCCCCAGCCCCUCCUCUUGUUUCUUCAUUCAUUCAACAAAAUUUGGCUGGAAUCUGGUUAUUUUG: 0.885
UAGAGGCCAUUGUCUUCUGUCCUGAUCAGGUGGCCUGGCUGUUUCUUUGGAUCCCUCUGUCCCAGAGCCACCCAGAACCCUGACUCUUGAGAAUCAAGAAAACACCCAGA: 0.309
ACCUCAGGCAACGGGUGGAGCAGUUUGCCAGGGCCUUCCCCAUGCCUGGUUUUGAUGAGCAUUGAAGGCACCUGGGAAAUGAGGCCCACAGACUCAAAGUUACUCUCCUU: 1.35
CUCACCCGUGUCCCCGCCCCGCCCCUCCGUCCACACUGGCCGGCACCCCCUGCUGGGUCUCCUGCAUUCCACGGAGCCCCUGCUGCCAGGGCGGUGUCUGAGCCUGCCGG: 0.53
UGGGAGUGGGGCCAGCCGUGGACAGCUGAGGUUGGGGUCAAUGCCUCCUGGGCACCCUUGCCUCGCCCCAGACCGGCCCGUCCAGUCCCCAUCACACCUCGGCGGCCUUU: 0.232
AGAGGUGUCCUCUGUCACGUGUGUAACAGCUGGAACACAGUGGCCGUCUUCCCUCGGCUCUUGUUGGUGUGUGCAUGUGCUGCGUGCACACCGGGUUGUAUGGCGUCAGC: 0.647
GCCGCGCACGCUUCUGCAUCCUGGAUGUGUGCACCGUGCGCUGAGUGGGCUGGGGCCUUGAGGUGACUCUGUGUCUCCCCCCAAAGCCACAGGGCAGGGAAGGGGGUGGC: 0.438
CAUUUCAUCUGAGGUUGCUGUCUUUUUGGUGGGGAGGGGUUUGGGGAACCCAUCAGGUAUGAGUGAGGAGCCGGUAGUGAAUUCAGUAUUGGCCAAGUCCAUGUUGUGUG: 1.87

Study 2
Target: Sal-like protein 4, full length isoform B (SALL4, Homo sapiens, UniProt Q9UJQ4-2, residues 1-616)
Method: universal PBM
Form: double-stranded DNA, one strand shown
Medium: in vitro
Concentration: not given
Setting: 8-mer, flanks averaged, mean of replicates
Reading: higher = stronger binding
Quantity: E-score
CTTATCTC: 0.122
AAAGGTTA: 0.168
CGCGAAGA: -0.0823
AAGGTTAG: 0.0631
CACTAGTC: -0.156
AACAATTG: 0.206
AAGGCAGT: 0.0555
TTATGCAA: 0.234
GAGAACGA: -0.0959
CTAACCAC: -0.0503
ACGCAAGA: -0.0241
ATTGAGTG: 0.082
CCGTCGAG: -0.205
ATACAGGG: 0.173
TCGATGCA: -0.0895
CAGCAAAG: -0.0942

Study 3
Target: Ras GTPase-activating protein-binding protein 1, RRM domain (G3BP1, Homo sapiens, UniProt Q13283)
Chain of UniProt Q13283 (whole entry, looked up): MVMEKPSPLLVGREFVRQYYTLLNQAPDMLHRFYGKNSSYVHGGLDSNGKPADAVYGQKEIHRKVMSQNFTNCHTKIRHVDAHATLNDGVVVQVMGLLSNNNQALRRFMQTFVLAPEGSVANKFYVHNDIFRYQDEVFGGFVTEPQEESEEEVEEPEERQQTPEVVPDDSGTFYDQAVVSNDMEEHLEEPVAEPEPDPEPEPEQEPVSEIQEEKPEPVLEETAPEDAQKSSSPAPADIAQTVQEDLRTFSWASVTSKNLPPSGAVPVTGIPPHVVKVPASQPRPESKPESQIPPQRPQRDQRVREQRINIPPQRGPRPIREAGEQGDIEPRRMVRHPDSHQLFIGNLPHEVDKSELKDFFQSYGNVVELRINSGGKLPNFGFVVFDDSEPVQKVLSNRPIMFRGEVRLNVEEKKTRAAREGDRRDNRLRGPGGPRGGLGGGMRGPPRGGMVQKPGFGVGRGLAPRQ
Method: RNA Bind-n-Seq
Form: RNA
Medium: in vitro
Concentration: 1 µM
Setting: whole 134-nt RNA, ends assumed
Together with: 150 mM KCl
Reference: input library
Reading: higher = stronger binding
Quantity: log2 enrichment
Constant ends, left off below: GGGAGUUCUACAGUCCGACGAUC … UGGAAUUCUCGGGUGUCAAGG
CAAGUCCUGUGCUACACAUCGUAUGUACCGAAUCGGGGCCCGGGCCCGGGGCCCGGAAAGUAUUAUGUUACGCCGUUCGGAUCUGCACUU: -1.07
AAGUCCUGUGCUACACAUCGUAUGUACCGAAUCGGGGUGGGGUUUUUGGGGAGGGGAAAGUAUUAUGUUACGCCGUUCGGAUCUGCACUU: 0.969
CUGUGCUACACAUCGUAUGUACCGAAUCGGGGUUUUUUUGGGGUUUGGGGAAAAAAAGGGGAAAGUAUUAUGUUACGCCGUUCGGAUCUG: 0.561
AAGUCCUGUGCUACACAUCGUAUGUACCGAAUCGGGAAAAAGGAAAAAGGAAAAAGGAAAGUAUUAUGUUACGCCGUUCGGAUCUGCACU: 0.034
AGUCCUGUGCUACACAUCGUAUGUACCGAAUCGGGGAAAAAGGAAAAAGGAAAAAGGAAAGUAUUAUGUUACGCCGUUCGGAUCUGCACU: -0.036
UCAAGUCCUGUGCUACACAUCGUAUGUACCGAAUCGGGGCCGGGGCCGGGCCGGGAAAGUAUUAUGUUACGCCGUUCGGAUCUGCACUUC: -1.16
UCACCUGUUUACAGUGAAUCAGACGUCCCAAUAGAUGUGGAGACGGUCACAUCAACGCCUAUGCCACUCUAUGACAAUCAGAAGGCACGC: -0.185
GUCCUGUGCUACACAUCGUAUGUACCGAAUCGGGCCCCCGGGGCCCCCGGCCCCCGGGAAAGUAUUAUGUUACGCCGUUCGGAUCUGCAC: -0.605
CACAGAGAACACGCACCCACACAGACACAGAGGGAAGGGGUUGGGAUGGGGACAGGGUGCACAGCAGGGCGGGGUAGGACCCCAGCCCCU: 0.0577
UUCCUCAAGUCCUGUGCUACACAUCGUAUGUACCGAAUCGGUGGUGGUGGGAAAGUAUUAUGUUACGCCGUUCGGAUCUGCACUUCCAGC: -0.139
UCAAGUCCUGUGCUACACAUCGUAUGUACCGAAUCGGGGAAGGAAGGGGAAGGGGAAAGUAUUAUGUUACGCCGUUCGGAUCUGCACUUC: 0.502
AAGUCCUGUGCUACACAUCGUAUGUACCGAAUCGGGGUUUGGGGUGGGGAAAGGGGAAAGUAUUAUGUUACGCCGUUCGGAUCUGCACUU: 0.803
CUGUGCUACACAUCGUAUGUACCGAAUCGGGGUUUUUGGGGUUUUUGGGGUUUUUUUGGGGAAAGUAUUAUGUUACGCCGUUCGGAUCUG: 1.01
AGUCCUGUGCUACACAUCGUAUGUACCGAAUCGGGCCCCGGGGCCCCGGGCCCCGGGAAAGUAUUAUGUUACGCCGUUCGGAUCUGCACU: -1.33

Study 4
Target: RING finger protein unkempt homolog, zinc fingers 1-6, GST-SBP tag (UNK, Homo sapiens, UniProt Q9C0B0, residues 30-357)
Chain of UniProt Q9C0B0 (30-357, looked up): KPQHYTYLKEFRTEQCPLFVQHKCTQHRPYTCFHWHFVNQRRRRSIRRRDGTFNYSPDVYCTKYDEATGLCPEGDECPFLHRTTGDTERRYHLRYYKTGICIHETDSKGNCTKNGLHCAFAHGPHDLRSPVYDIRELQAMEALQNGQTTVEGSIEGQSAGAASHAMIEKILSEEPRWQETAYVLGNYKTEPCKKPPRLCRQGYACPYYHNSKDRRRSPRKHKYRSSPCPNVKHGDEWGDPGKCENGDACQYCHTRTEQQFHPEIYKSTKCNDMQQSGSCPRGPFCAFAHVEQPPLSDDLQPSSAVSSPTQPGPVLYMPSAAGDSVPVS
Method: RNA Bind-n-Seq
Form: RNA
Medium: in vitro
Concentration: not given
Setting: RNA with constant flanks, ends assumed
Reference: input RNA pool
Reading: higher = stronger binding
Quantity: bound/input enrichment
Constant ends, left off below: GGGAGUUCUACAGUCCGACGAUC … CAACAGAGGAUUGAGCAUCA
GCAGCUAUUCCACAUGCCGCAGAAGAUAUUCAAGGAGAUGACAGGUGGAUGUCUCAGCAUAACCGGUUUGUUCUGGACUGUAAAGACAAAGAACCAGAUGUGCUGUUUGUGGGGGACUCC: 0.174 ratio
UUUAAAGAAAAUACAAAGAUGCAGUUUCUGCAGGGUGUGGCGUGGACCAGUGCUGCCGACCACCGCUCAGAGAGCCCUGCCCCUGCCUCACUGCACUGCAGCCUCCUCGGAGGCCGCACC: 0.184 ratio
UUGUGUAGAAGAUGGACUCUGAAAGACAUUCCAAGAGUGCCGCGGCAGCAUGGGAGCCUCUCCGUGAUUGUGUCAGUAUUAUUGUGGAAGAUUGCCUUUGCUGUUGUAUGUAAAGUUUCA: 0.138 ratio
GUUACAGGUCCUGGUGGUGUUCCAGUUCAAGGCAGUAAAUAUGCAGCAGACCGUAACCAUUACCGACGCUAUCCACGUCGUAGGGGUCCUCCACGCAAUUACCAGCAAAAUUACCAGAAU: 0.229 ratio
UUUGUAUUUAUGCUAAGCACACGUGCUGGUGGUCUGGGCAUCAAUCUUGCAACUGCUGAUGCCGUCAUUUUAUAUGACUCAGAUUGGAAUCCGCAAGUUGAUCUUCAGGCUAUGGACCGU: 0.13 ratio
GGCUUGGAGUUUGGCAAGUUACCAUUUGGUGCCUGCGAAGAUCCUAUUAGUGAACUCCAUUCCGCUACUACAUGGCCUCAUCUGACCGAAGGGAUCAUUGUGGAUAAUGAUGUUUAUUCU: 0.0864 ratio
CUGGGUUGGCAAUUGACUGGUCAAGAAACCCAUGAGUUACAAAUGUGUUUGAAACAAAUAAUCCGAAACAUAAAAUUCAAAAUGCCCCAAUAUAGCACUUUUGGGGAUUCAACUUCUACA: 0.157 ratio
GACUCUCAGUUUAACAUUAUGUCUGUUAAAACUCUGACAAGCAUUCCGAUUUUGUUAUUUAUCCGCAGUGUCAAGUCUUGUGACUAUUAAAAGAACCACUGUAAUUCAAAACAUCAGCGU: 0.167 ratio
GAUAUACUUACGUAAUGGAGCUGUCAAAGCCGAGAGACCAGCCUGCGUCCUAAAGUUUGCUUCCGAGAGUAGGAAUGUCGGGGUUUCCAGUUAGAAAACCUUUAUUUUUGGAAACGGAAU: 3.84 ratio
AUUUCCAUGGGACUUACAAGGAGCAUGCAGAUUGUCCCUUUAGACAAGCAGAUCACAAUCACCGACAGUCCAUGCCUAAUUAUCUCACCUUGUAACUCCCCCACUGCACUUGCCCUUCGG: 0.167 ratio
AGCCAGUCCCUAGGGCUCAGGGAGCAGGAGCUUCAGGUUGUCCGAGCAUCUGGGAAGUAAGUGGCCGGGGUGACAGGAAGCUAGGAGUACAGGCAUCCAUCUGUGGUGGGGAAACAGCUG: 0.189 ratio

For quick reference, copied from above (study 3):
CAAGUCCUGUGCUACACAUCGUAUGUACCGAAUCGGGGCCCGGGCCCGGGGCCCGGAAAGUAUUAUGUUACGCCGUUCGGAUCUGCACUU: -1.07
AAGUCCUGUGCUACACAUCGUAUGUACCGAAUCGGGAAAAAGGAAAAAGGAAAAAGGAAAGUAUUAUGUUACGCCGUUCGGAUCUGCACU: 0.034
UUCCUCAAGUCCUGUGCUACACAUCGUAUGUACCGAAUCGGUGGUGGUGGGAAAGUAUUAUGUUACGCCGUUCGGAUCUGCACUUCCAGC: -0.139
UCACCUGUUUACAGUGAAUCAGACGUCCCAAUAGAUGUGGAGACGGUCACAUCAACGCCUAUGCCACUCUAUGACAAUCAGAAGGCACGC: -0.185
AAGUCCUGUGCUACACAUCGUAUGUACCGAAUCGGGGUUUGGGGUGGGGAAAGGGGAAAGUAUUAUGUUACGCCGUUCGGAUCUGCACUU: 0.803
AGUCCUGUGCUACACAUCGUAUGUACCGAAUCGGGCCCCGGGGCCCCGGGCCCCGGGAAAGUAUUAUGUUACGCCGUUCGGAUCUGCACU: -1.33
GUCCUGUGCUACACAUCGUAUGUACCGAAUCGGGCCCCCGGGGCCCCCGGCCCCCGGGAAAGUAUUAUGUUACGCCGUUCGGAUCUGCAC: -0.605
